Results gathered from unrelated publications.
Protocols differ between the studies behind these lines. ± gives the spread as reported.
CHRM1: Muscarinic acetylcholine receptor M1 (CHRM1, Homo sapiens, UniProt P11229)

CC(=O)N[C@H]1[C@@H](OP(=O)(O)OP(=O)(O)OC[C@H]2O[C@@H](n3ccc(=O)[nH]c3=O)[C@H](O)[C@@H]2O)O[C@H](CO)[C@@H](O)[C@@H]1O — kon (ABO (Homo sapiens, UniProt P16442); binding, NMR): 59000 M⁻¹ s⁻¹
CC/C(=C(\c1ccc(O)cc1)c1ccc(OCCN(C)CCOCCOCCOCCOCCOCCOCCOCCN(C)CCOc2ccc(/C(=C(/CC)c3ccccc3)c3ccc(O)cc3)cc2)cc1)c1ccccc1 — relative binding affinity (ESR2 (Homo sapiens, UniProt Q92731); radioligand competition binding; concentration not given, Z-Z/Z isomer form, added: [3H]estradiol tracer; baseline: estradiol): 20.7%
C=CC(=O)N1CCC(c2ccccc2)CC1 — protein-compound complex (Fosb/Jund, ΔFosB bZIP domain (Mus musculus, UniProt P13346+P15066); covalent adduct, intact mass LC-MS; concentration not given): < 2%
C=CCC(=N)NCCC[C@H](N)C(=O)O — NMDA-evoked cGMP accumulation (Nitric oxide synthase 1 (Mus musculus, UniProt Q9Z0J4); adult mouse hippocampal slices; 0.1 µM, added: EHNA 300 µM): no effect
O=C(Nc1cccc(C(=O)Nc2ccc(S(=O)(=O)O)c3cc(S(=O)(=O)O)cc(S(=O)(=O)O)c23)c1)Nc1cccc(C(=O)Nc2ccc(S(=O)(=O)O)c3cc(S(=O)(=O)O)cc(S(=O)(=O)O)c23)c1 — Hill slope (Neutrophil elastase (ELANE, Homo sapiens, UniProt P08246); enzyme activity, inhibitor, chromogenic substrate hydrolysis; pH 7.4, 37 °C, 100 mM NaCl, added: substrate S-1384): 1.2 ± 0.5
CC1=C(/C=C/C=C\C=C\C(C)=C\C=O)C(C)(C)CCC1 — cell surface expression (Rhodopsin (RHO, Homo sapiens, UniProt P08100); pharmacological chaperone, immunostaining, nonpermeabilized cells; 661W; 2.5 µM, 16 h; baseline: untreated cells): ~2 fold
COc1cc(-c2cnc3nc2NCCCNS(=O)(=O)c2cccc(c2)N3)ccc1F — thermal shift ΔTm (EPHB3 (Homo sapiens, UniProt P54753); differential scanning fluorimetry; 10 µM; higher = stronger binding): 5.6 K
CCN(CC)C(=O)c1ccc(O)c(OC)c1 — bound ligand fraction (Heat shock protein HSP 90-alpha, N-terminal domain (HSP90AA1, Homo sapiens, UniProt P07900); binding, ligand-observed NMR titration; ligand to protein ratio 56): 0.74 mol %
Nc1ncnc2c1ncn2[C@@H]1O[C@H](CO)[C@@H](O[C@H]2O[C@H](CO)[C@@H](OP(=O)(O)O)[C@H](OP(=O)(O)O)[C@H]2O)[C@H]1O — Hill coefficient (Inositol 1,4,5-trisphosphate-gated calcium channel ITPR1, N-terminal region (Itpr1, Rattus norvegicus, UniProt P29994, del318-332/R568Q); [3H]IP3 competition binding; N-terminal fragment R568Q; Tris-EDTA medium): 0.7 ± 0.1
C/C(=N\OCCCN1CCOCC1)c1ccc(C(F)(F)F)cc1 — Ki ratio (rat sigma-1 receptor; binding; added: phenytoin 250 µM; baseline: without over with phenytoin): 1.32
CC(=O)N[C@H](C(=O)N1CCC[C@H]1C(=O)N[C@H](C(=O)N[C@@H](Cc1ccccc1)C(N)=O)[C@@H](C)O)[C@@H](C)OP(=O)(O)O — activity (Breast cancer type 1 susceptibility protein, tandem BRCT domains (BRCA1, Homo sapiens, UniProt P38398); binding, fluorescence polarization; concentration not given): inactive
COc1cc(C2CC(=O)Nc3nc(N)[nH]c(=O)c32)ccc1O (stereo not drawn) — ΔG (uncharacterized protein (Leishmania donovani, UniProt A0A3Q8IA09); competitive ITC; added: aspartate 60 µM): -7.17 kcal/mol
C[C@H](CCC(=O)N[C@@H](CCC(=O)Nc1cccc(O)c1)C(=O)O)[C@H]1CC[C@H]2[C@@H]3[C@H](O)C[C@@H]4C[C@H](O)CC[C@]4(C)[C@H]3CC[C@]12C — Jmax (SLC10A2 (Homo sapiens, UniProt Q12908); transport, substrate; ASBT-MDCK cells; unit not given; baseline: taurocholate Jmax): 0.464
CC(=O)NC1CC=C(c2cc3c(Nc4cc5ncsc5cc4F)ncnc3s2)CC1 (racemic) — remaining activity (RIPK1 (Homo sapiens, UniProt Q13546); enzyme activity; 1 µM; baseline: untreated): 108 ± 1%
CCC(=C(c1ccc(Cl)cc1)c1ccc(OCCN(C)C)cc1)c1ccc(OC)cc1 — β-galactosidase activity fold (Estrogen receptor (ESR1, Homo sapiens, UniProt P03372); reporter gene, agonist, yeast estrogen screen; 1 µM; baseline: DMSO): 5.49
N=C(N)NCCC[C@H](NC(=O)[C@H](Cc1ccccc1)NC(=O)[C@@H](N)CO)C(=O)N[C@@H](CC(N)=O)C(N)=O — bias factor (Neuropeptide S receptor (Mus musculus, UniProt Q8BZP8); calcium vs cAMP signalling, agonist; HEK-293T cells; higher = calcium bias): 14.6
CCCCCCOc1ccc(C(=O)OCC[N+]2(C)CC=CCC2)cc1 (stereo not drawn) — cooperativity factor (CHRM1; antagonist, measured: inositol phosphates; CHO; M1, added: carbachol): 0.0011 ± 0.0002
CN1CCN(CC(=O)N2N=C3/C(=C/c4ccccc4)CCCC3C2c2ccccc2)CC1 (mixture of isomers) — initial rate increase (ALOX15 (Homo sapiens, UniProt P16050); activator; 10 µM, added: arachidonic acid 100 µM; baseline: no activator): 30%
O=C1c2ccc(O)cc2OC(c2ccc(O)cc2)C1C1C(=O)c2ccc(O)cc2OC1c1ccc(O)cc1 (stereo not drawn) — Vmax (PRXC1A (Armoracia rusticana, UniProt P00433); oxidation, substrate): 165 ± 4.7 µmol/min/mg
CC(C)CCC[C@@H](C)[C@H]1CC[C@H]2[C@@H]3CC=C4C[C@@H](OS(=O)(=O)O)CC[C@]4(C)[C@H]3CC[C@]12C — Hill slope (Prothrombin (F2, Homo sapiens, UniProt P00734); enzyme activity, inhibitor; added: unfractionated heparin 0 µM): 1.6 ± 0.3
[3H]C([3H])([3H])c1cnccc1CN1C[C@@H](c2cc(F)c(F)c(F)c2)CC1=O — total binding (SV2A (Homo sapiens, UniProt Q7L0J3); radioligand binding, autoradiography; human, post-mortem temporal lobe; 5 nM): 424 fmol/mg
CNc1ccccc1C(=O)O[C@H]1C[C@H](n2cnc3c(N)ncnc32)O[C@@H]1COP(=O)(O)OP(=O)(O)O — fast phase y-intercept (Unconventional myosin-Va (Gallus gallus, UniProt Q02440, D297C/G292C/I296C/S293C/V295G); stopped-flow FRET; baseline: 2 mM MgCl2, higher without Mg): ~10 fold
CC(C)CNC(=O)[C@H](Cc1ccccc1)NC(=O)[C@H](Cc1c[nH]c2ccccc12)NC(=O)[C@H](CCCNC(=N)N)NC(=O)OC(C)(C)C — activity (E3 ubiquitin-protein ligase Mdm2, with p53 (MDM2, Homo sapiens, UniProt Q00987); MDM2-p53 binding, inhibitor, competitive ELISA; concentration not given): inactive
Cc1ccc(Oc2cc(C(=O)NCc3ccccn3)nc3ccsc23)cn1 — PAM activity (CHRM1; positive allosteric modulator; concentration not given): inactive
Cc1sc2c(c1C)C(c1ccc(Cl)cc1)=N[C@@H](CC(=O)NCCCCCCCCC(=O)N1CCN(C(=O)c3cc(Cc4n[nH]c(=O)c5ccccc45)ccc3F)CC1)c1nnc(C)n1-2 — concentration inducing PARP1-BRD4 interaction (BRD4/PARP1 (Homo sapiens, UniProt O60885+P09874); co-immunoprecipitation; HEK293T expressing FLAG-BRD4; 1 h): < 10 nM
CCCNCC(=O)O — apparent binding constant (Albumin (ALB, Homo sapiens, UniProt P02768); UV-vis absorption titration; pH 7.4, room temperature): 1.4 mM⁻¹
CCNC(=O)[C@H]1O[C@@H](n2cnc3c(NCCCNC(=O)CCCCCNC(=O)COc4ccc(/C=C/C5=[N+]6C(=Cc7ccc(-c8cccs8)n7[B-]6(F)F)C=C5)cc4)ncnc32)[C@H](O)[C@@H]1O — maximal Gs response (ADORA1 (Homo sapiens, UniProt P30542); CRE reporter gene, agonist; CHO-A1; PTX 100 ng/mL overnight, added: forskolin 3 µM; baseline: forskolin alone): 1.67 ± 0.06 fold increase

For quick reference, copied from above:
CC/C(=C(\c1ccc(O)cc1)c1ccc(OCCN(C)CCOCCOCCOCCOCCOCCOCCOCCN(C)CCOc2ccc(/C(=C(/CC)c3ccccc3)c3ccc(O)cc3)cc2)cc1)c1ccccc1 — relative binding affinity (ESR2 (Homo sapiens, UniProt Q92731); radioligand competition binding; concentration not given, Z-Z/Z isomer form, added: [3H]estradiol tracer; baseline: estradiol): 20.7%
C=CC(=O)N1CCC(c2ccccc2)CC1 — protein-compound complex (Fosb/Jund, ΔFosB bZIP domain (Mus musculus, UniProt P13346+P15066); covalent adduct, intact mass LC-MS; concentration not given): < 2%
C=CCC(=N)NCCC[C@H](N)C(=O)O — NMDA-evoked cGMP accumulation (Nitric oxide synthase 1 (Mus musculus, UniProt Q9Z0J4); adult mouse hippocampal slices; 0.1 µM, added: EHNA 300 µM): no effect
